Literature values as cited in several papers.
Each numbered part shows a few of the values that one paper quotes. Numbers after ± are the reported error.
Chain of UniProt Q9ULZ3 (whole entry, looked up): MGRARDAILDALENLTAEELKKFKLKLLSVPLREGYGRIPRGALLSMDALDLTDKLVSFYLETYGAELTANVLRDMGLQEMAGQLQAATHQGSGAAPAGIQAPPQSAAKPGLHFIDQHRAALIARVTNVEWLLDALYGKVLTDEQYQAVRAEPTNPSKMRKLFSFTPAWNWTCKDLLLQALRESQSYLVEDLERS
Chain of UniProt P04692 (whole entry, looked up): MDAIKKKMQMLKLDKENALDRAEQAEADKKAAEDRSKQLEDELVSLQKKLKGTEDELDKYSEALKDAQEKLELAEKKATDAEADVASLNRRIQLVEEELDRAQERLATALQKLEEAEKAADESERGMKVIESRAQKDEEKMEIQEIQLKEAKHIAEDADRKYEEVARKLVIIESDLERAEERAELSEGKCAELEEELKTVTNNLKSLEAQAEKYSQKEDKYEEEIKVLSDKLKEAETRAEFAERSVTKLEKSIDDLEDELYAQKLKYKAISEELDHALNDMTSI
Chain of UniProt Q96P20 (whole entry, looked up): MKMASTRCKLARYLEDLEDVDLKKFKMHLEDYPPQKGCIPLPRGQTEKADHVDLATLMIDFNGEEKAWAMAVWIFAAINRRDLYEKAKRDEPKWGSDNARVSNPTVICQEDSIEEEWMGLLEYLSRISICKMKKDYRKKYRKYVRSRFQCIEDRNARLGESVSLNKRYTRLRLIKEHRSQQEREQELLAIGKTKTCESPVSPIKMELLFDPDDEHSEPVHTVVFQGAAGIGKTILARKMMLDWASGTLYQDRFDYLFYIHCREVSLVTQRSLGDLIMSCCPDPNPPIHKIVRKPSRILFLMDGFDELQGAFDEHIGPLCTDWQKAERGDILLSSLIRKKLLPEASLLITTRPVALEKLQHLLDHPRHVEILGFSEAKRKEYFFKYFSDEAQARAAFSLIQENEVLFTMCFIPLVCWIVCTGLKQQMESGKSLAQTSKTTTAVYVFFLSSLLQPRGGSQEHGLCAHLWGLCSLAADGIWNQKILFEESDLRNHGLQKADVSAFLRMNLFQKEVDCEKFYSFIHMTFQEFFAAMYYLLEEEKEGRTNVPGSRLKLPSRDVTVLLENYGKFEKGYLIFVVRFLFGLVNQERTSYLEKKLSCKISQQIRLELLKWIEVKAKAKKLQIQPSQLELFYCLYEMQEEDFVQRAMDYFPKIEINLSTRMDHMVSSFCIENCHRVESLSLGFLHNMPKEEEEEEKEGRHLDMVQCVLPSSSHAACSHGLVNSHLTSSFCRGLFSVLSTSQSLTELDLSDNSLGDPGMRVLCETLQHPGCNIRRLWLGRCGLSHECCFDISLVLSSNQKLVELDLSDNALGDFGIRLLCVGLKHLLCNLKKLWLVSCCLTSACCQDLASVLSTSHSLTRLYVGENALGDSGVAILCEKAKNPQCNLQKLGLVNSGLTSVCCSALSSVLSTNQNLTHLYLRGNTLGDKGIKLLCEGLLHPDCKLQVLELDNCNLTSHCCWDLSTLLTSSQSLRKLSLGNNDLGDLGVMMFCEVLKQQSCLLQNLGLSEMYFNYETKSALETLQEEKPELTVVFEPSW

Study 1 — organism: Klebsiella pneumoniae; molecule type: peptide
Molecule | MIC [µg/mL]
RQIKIWFQNKKWKWKK | 1000
KWIKIWFIWRRIKWRK | 46.9
RQIKIWFQNRKWKWKK | 500

Single results of other studies
B1: CCL1; sequence looked up; chain KSMQVPFSRCCFSFAEQEIPLRAILCYRNTSSICSNEGLIFKLKRGKEACALDTVGWVQRHRKMLRHCPSKRK
Molecule | target or system | assay | system | conditions | quantity | result
PYCARD PYD domain (Homo sapiens, UniProt Q9ULZ3) | NLRP3 PYD (Homo sapiens, UniProt Q96P20) | NMR titration | – | – | Kd | 22000 nM
pegcetacoplan | – | – | cynomolgus monkey | 7 mg/kg, NOAEL dose, arithmetic mean | AUC(0-29 days) | 443000 µg·h/mL
B1 (CCL1) | CCR8 K195A mutant | IP accumulation, agonist | – | – | EC50 | 7.5 nM
MSYRKELEKYRDLDEDKILGALTEEELRKLENELEELD | Tropomyosin alpha-1 chain (Tpm1, Rattus norvegicus, UniProt P04692) | CD thermal unfolding | – | 30 °C | Kd | 1000 ± 130 nM
LAGSASAHAFR | – | isocratic RP-HPLC, C18 column | peptide, water/acetonitrile, 0.1% TFA | 25 °C | retention coefficient S | 21.3

For quick reference, copied from above (single results of other studies):
Molecule | target or system | assay | system | conditions | quantity | result
pegcetacoplan | – | – | cynomolgus monkey | 7 mg/kg, NOAEL dose, arithmetic mean | AUC(0-29 days) | 443000 µg·h/mL
